Results from different studies.
A part holds a random share of what one study measured.

Sample 1 — technique: universal PBM; molecule type: double-stranded DNA, one strand shown; medium: in vitro; tested at: 600 nM; reading: higher = stronger binding
Target: Sal-like protein 4, full length isoform A (SALL4, Homo sapiens, UniProt Q9UJQ4, residues 1-1053)
Sequence of UniProt Q9UJQ4 (whole entry, looked up): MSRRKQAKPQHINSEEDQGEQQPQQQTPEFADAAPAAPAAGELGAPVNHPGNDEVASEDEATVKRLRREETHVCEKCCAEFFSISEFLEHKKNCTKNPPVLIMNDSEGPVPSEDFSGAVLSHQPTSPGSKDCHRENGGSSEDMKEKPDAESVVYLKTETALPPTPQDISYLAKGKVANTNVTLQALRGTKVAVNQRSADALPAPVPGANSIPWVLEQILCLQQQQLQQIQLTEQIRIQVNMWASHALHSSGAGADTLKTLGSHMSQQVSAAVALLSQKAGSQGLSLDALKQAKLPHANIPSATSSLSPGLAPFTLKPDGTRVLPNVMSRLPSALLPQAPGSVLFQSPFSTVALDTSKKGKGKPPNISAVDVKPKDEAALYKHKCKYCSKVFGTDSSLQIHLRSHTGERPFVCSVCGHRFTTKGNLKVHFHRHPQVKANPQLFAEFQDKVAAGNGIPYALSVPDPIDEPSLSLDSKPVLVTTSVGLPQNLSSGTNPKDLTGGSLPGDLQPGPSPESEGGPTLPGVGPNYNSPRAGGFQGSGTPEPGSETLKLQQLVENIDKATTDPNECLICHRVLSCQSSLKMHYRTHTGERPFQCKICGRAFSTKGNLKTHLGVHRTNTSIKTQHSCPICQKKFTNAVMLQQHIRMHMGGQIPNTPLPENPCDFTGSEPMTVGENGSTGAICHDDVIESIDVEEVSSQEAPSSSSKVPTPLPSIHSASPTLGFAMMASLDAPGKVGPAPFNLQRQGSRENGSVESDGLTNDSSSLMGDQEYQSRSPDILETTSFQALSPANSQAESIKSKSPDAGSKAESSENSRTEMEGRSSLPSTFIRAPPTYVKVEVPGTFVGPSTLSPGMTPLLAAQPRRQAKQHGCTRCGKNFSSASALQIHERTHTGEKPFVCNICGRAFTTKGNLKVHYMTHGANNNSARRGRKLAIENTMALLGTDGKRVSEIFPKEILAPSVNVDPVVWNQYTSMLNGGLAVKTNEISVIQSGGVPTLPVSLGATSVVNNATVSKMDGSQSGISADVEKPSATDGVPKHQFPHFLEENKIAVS
Notes: 8-mer, flanks averaged, mean of replicates
With `AATCTCTG` the E-score was 0.0506.
With `ATTTGGCC` the E-score was -0.0898.
For `AACGCGCT`, the E-score was -0.243.
`CGGGTAAA` has an E-score of -0.00673.
For `CCTTCCAA`, the E-score was -0.0217.
The E-score of `TTCACCAA` is reported as 0.0561.
For `GTTGTCGA`, the E-score was -0.0783.
With `ATTCGAAC` the E-score was 0.122.
The E-score of `GCGACTGA` is reported as -0.229.
The E-score of `CAATAGGG` is reported as -0.074.
For `ATTCGGCA`, the E-score was -0.0202.
For `CATGTCGC`, the E-score was -0.0812.
For `ATGGTAAA`, the E-score was 0.254.
`ATTATACG` has an E-score of 0.287.
The E-score of `GACCTGTA` is reported as 0.01.
`ATGGGTAG` has an E-score of -0.0631.
`ATTTTGGG` gave an E-score of 0.107.
For `CGGAGGCA`, the E-score was -0.211.
The E-score of `ACGTTCAA` is reported as 0.106.
`ACACCTAT` has an E-score of 0.0873.
For `GAATACTA`, the E-score was 0.239.
`GAATAACA` has an E-score of 0.226.
`AAGCGTTG` has an E-score of -0.0496.
`CATGCTGC` has an E-score of -0.208.
The E-score of `TCGAATAA` is reported as 0.274.

Sample 2 — technique: RNA Bind-n-Seq; molecule type: RNA; medium: in vitro; tested at: 200 nM; notes: whole 134-nt RNA, ends assumed; together with: 150 mM LiCl; reference: input library; reading: higher = stronger binding; all molecules: 7-deaza-guanosine replaces G
Target: Ras GTPase-activating protein-binding protein 1, full length (G3BP1, Homo sapiens, UniProt Q13283)
Sequence of UniProt Q13283 (whole entry, looked up): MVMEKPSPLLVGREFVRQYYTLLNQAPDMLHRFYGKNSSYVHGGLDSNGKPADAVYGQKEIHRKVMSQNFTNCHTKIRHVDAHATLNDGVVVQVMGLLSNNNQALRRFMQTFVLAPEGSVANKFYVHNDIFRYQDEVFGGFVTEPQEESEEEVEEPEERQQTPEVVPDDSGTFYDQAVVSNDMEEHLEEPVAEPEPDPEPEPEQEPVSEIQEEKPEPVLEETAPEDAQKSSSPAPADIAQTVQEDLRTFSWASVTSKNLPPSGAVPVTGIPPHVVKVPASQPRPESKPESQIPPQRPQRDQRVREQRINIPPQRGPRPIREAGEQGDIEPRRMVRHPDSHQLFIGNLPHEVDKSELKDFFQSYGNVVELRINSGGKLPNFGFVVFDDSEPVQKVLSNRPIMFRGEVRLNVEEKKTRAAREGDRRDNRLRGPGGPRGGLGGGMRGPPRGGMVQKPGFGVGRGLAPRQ
`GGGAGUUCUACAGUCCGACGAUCCUGUGCUACACAUCGUAUGUACCGAAUCGGGGUUUUUUUGGGUUUUUUUGGGUUUUUUUGGGAAAGUAUUAUGUUACGCCGUUCGGAUCUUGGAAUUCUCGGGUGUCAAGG` gave a log2 enrichment of 1.3.
With `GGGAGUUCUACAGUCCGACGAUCCUCAAGUCCUGUGCUACACAUCGUAUGUACCGAAUCGGGUGGGUGGGAAAGGGAAAGUAUUAUGUUACGCCGUUCGGAUCUGCACUUCCAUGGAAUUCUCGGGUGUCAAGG` the log2 enrichment was -0.059.
`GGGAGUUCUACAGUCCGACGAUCUCCUGUGCUACACAUCGUAUGUACCGAAUCGGGUUUUUUUGGGAAAAAAAGGGAAAGGGAAAGUAUUAUGUUACGCCGUUCGGAUCUGCAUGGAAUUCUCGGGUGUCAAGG` has a log2 enrichment of -1.41.
With `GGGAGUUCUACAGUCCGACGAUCUGGGAGGUGGAUUUUGUUUAUUUUUUUAGCUCAUUUCCAGGGGUGGGAAUUUUUUUUUAAUAUGUGUCAUAAAUAAAGUUGUUUUUGAAAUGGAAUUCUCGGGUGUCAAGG` the log2 enrichment was -0.0155.
For `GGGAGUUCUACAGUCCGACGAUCUAACUUUAGAGGAGGAUCUGUUGGAUAUGGCAGUGGACGUGGAUUUGGGGAUGGCUAUAAUGGGUAUGGAGGAGGACCUGGAGGUGGCAAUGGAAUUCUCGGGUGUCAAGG`, the log2 enrichment was 0.114.
The log2 enrichment of `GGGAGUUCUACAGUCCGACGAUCAGUCCUGUGCUACACAUCGUAUGUACCGAAUCGGGGAGGGGUGGGGAAAAAAAGGGGAAAGUAUUAUGUUACGCCGUUCGGAUCUGCACUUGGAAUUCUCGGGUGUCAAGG` is reported as 0.382.
`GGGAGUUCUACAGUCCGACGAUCCACAGACAACACGCACCCACACAGACACAGAGGGAAGGGGUUGGGAUGGGGACAGGGUGCACAGCAGGGCGGGGUAGGACGCCAGCCCCUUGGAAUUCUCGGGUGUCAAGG` gave a log2 enrichment of -0.395.
`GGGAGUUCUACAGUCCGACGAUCCCUGUGCUACACAUCGUAUGUACCGAAUCAAACCCCCCCAAACCCCCAAAUUUUUUUAAAAAAGUAUUAUGUUACGCCGUUCGGAUCUGCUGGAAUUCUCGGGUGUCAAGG` gave a log2 enrichment of 0.531.
The log2 enrichment of `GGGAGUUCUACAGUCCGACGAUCAAGUCCUGUGCUACACAUCGUAUGUACCGAAUCGGAAAGGUUUUUGGUUUUUUUGGAAAGUAUUAUGUUACGCCGUUCGGAUCUGCACUUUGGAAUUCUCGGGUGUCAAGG` is reported as -1.75.
With `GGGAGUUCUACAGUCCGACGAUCUAACUUUAGAGGAGGAUCUGAUGGAUAUGGCAGUGGACGUGGAUUUGGGGAUGGCUAUAAGGGGUAUGGAGGAGGACCUGGAGGUGGCAAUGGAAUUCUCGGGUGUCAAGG` the log2 enrichment was -0.0302.
`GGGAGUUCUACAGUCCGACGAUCUCAAGUCCUGUGCUACACAUCGUAUGUACCGAAUCGGAGGAAAAAAAGGAAAGGAAAGUAUUAUGUUACGCCGUUCGGAUCUGCACUUCCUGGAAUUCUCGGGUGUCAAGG` has a log2 enrichment of -0.621.

Sample 3 — technique: RNA Bind-n-Seq; molecule type: RNA; medium: in vitro; tested at: 365 nM; reference: no-protein control; reading: higher = stronger binding
Target: RNA binding protein fox-1 homolog 2, RRM domain, GST-SBP tag (RBFOX2, Homo sapiens, UniProt O43251-10, residues 100-194)
Notes: natural RNA segment, single round, ends assumed
Target sequence (chain): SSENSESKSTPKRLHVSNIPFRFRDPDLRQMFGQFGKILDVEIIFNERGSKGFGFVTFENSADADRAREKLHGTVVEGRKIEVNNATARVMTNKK
For `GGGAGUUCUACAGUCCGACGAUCCUGUGUAUAUAUAUUAAAAAAAAAACAAAGUUUUGUAUGUUUUUAUUACUUUAACUAUUGUUAUAAAAAGCCUGCCAUUUUUAAUAUGUGGUUUGGGGGAUUUUUGUUUGUGGAAUUCUCGGGUGCCAA`, “RBNS enrichment (R)” read 6.06.
`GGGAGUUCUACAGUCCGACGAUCUAUUUUUAACUAUGUUACACUCGUAAAUGACAAAACCAAAUCUUCUAUUAAAAGGCAAAGAUGAUGGGACUGUGUCUGGUUUUUGCAUGUCCUCCCUCACCCCCCCACCCUGGAAUUCUCGGGUGCCAA`: “RBNS enrichment (R)” 3.03.
`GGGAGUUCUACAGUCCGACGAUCCUCAGUGAACAGAAUAGCAGUCCCUGGAUGGCAGUCUGCCUAAAGAUUCCUUUCCCUGCCUUCUCCCAUACAUUCCAAAAGGAAGUUCAACAGUAAGCAGCACCUCCAAGUGGAAUUCUCGGGUGCCAA`: “RBNS enrichment (R)” 0.323.
`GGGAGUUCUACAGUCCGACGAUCCCAUCCCUUUCCCUGCUUCAGCGUCAGGCUGGGCCACCCACUUCAGCAGGCCGUGCGUGCGGACAGUCCUCAUUGCUGUGAGCGCAGUUACCACCUGGUGCCUCACUGUCUGGAAUUCUCGGGUGCCAA`: “RBNS enrichment (R)” 0.472.
For `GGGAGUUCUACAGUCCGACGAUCUUUUAGGAUUUUAAAAUGGUUGAAUUAAUUUAAAAUUGUCUUAAUUCUACUCUUAAUACUUCACUGUGAUGUUAACUUGGAAGACCUGCUGAAGAUUAGUCUUUUAAUUUUGGAAUUCUCGGGUGCCAA`, “RBNS enrichment (R)” read 0.724.
Under “RBNS enrichment (R)”, `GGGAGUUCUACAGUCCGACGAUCGAGAACAGGGAGACAGUGUGUGGGGGUGGGACCUCAUCUGUGUGCCUGGUAUCCUGAGUUUUACAUGUAGAUGCAUUCGCCUAUUUGAUUCAGAAAAAUAAACUUUCCCAUGGAAUUCUCGGGUGCCAA` is recorded as 1.38.
Under “RBNS enrichment (R)”, `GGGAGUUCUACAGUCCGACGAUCAGGUUGGAAAAUGAACUACUCAAGAUAGUCACGAAAAUACUGAAAGUUUGAUUUUUCUUUCCAUAUUUGAAUUAAUUUUUUCUGUUUGACUGGAAGGGGUUUUUGUAUAAUGGAAUUCUCGGGUGCCAA` is recorded as 0.626.
`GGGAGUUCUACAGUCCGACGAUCGGGACAUUGAGUGACAAGCCUCAGAAUGUUACAGAGGUAAAGUGAGGCAUCUCAAAUCCACUGACAGAUAAGAAAACCGCGUUAGAGGGAAAGUCACCUCUGCUAUUGUAUGGAAUUCUCGGGUGCCAA` — result for “RBNS enrichment (R)”: 8.21.
Under “RBNS enrichment (R)”, `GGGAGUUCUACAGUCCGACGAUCAAAAGUGACCUAGAAAGCCCAGUAGGAACCACAGAGCUCAAGCUGUCUGGCUCAAGUGGUGGAAGAGUGAGGGAGUCUGCAGUUUGUAAGUCUCGUUCUGUUGUGUUCUGUGGAAUUCUCGGGUGCCAA` is recorded as 1.3.
Under “RBNS enrichment (R)”, `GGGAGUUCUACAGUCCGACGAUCAUGAUAGAAGAUAGAAAGACUAUUGCCUAGAAAUAUGAGACUGAGUUUUGAAACAGAAACCAGUACUCAAUAAUGUAGUGUCAGUGUCCGUUUGGUACGUAUCAGUGAAUUGGAAUUCUCGGGUGCCAA` is recorded as 0.455.
`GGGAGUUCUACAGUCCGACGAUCGUUCCUGGUGCCUUCUGAUGGGGCUGGAAUAGUUGAGGUGGAUGGUUCUACCCUUUCUGCCUUCUGUUUGGGACCCAGCUGGUGUUCUUUGGUUUGCUUUCUUCAGGCUCUGGAAUUCUCGGGUGCCAA`: “RBNS enrichment (R)” 0.279.
`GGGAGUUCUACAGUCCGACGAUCUCUUAAAAAUUCGUUGCAUUGAAGGAUAUUUUGCAUGUCUGUAACACCUGUCAAUACUUGUUUGUAUUGAUUUCUGAUAUUCUUGCAGCUGACUACGUGUAAUUGGGCAGUGGAAUUCUCGGGUGCCAA` — result for “RBNS enrichment (R)”: 3.5.

Sample 4 — technique: RNA Bind-n-Seq; molecule type: RNA; medium: in vitro; tested at: 20 nM; notes: 6-mer, flanks averaged, single round; together with: 150 mM KCl; reference: input library; reading: higher = stronger binding
Target: TAR DNA-binding protein 43, full length, His tag (TARDBP, Homo sapiens, UniProt Q13148, residues 1-414)
For `GACCAA`, “6-mer enrichment (R)” read 0.757.
`CGUUCA` — result for “6-mer enrichment (R)”: 0.568.
`CUUUGG` — result for “6-mer enrichment (R)”: 0.815.
For `CGGCAG`, “6-mer enrichment (R)” read 1.55.
`AGUUUC` — result for “6-mer enrichment (R)”: 0.567.
For `CAAAUC`, “6-mer enrichment (R)” read 0.577.
Under “6-mer enrichment (R)”, `GUUGGG` is recorded as 3.39.
Under “6-mer enrichment (R)”, `AUCAUA` is recorded as 0.577.
`GAAUCC` — result for “6-mer enrichment (R)”: 0.644.
For `GUCAAA`, “6-mer enrichment (R)” read 0.725.
`CUCAAG` — result for “6-mer enrichment (R)”: 0.676.
`CGAAUC`: “6-mer enrichment (R)” 0.597.
`GUGUGA` — result for “6-mer enrichment (R)”: 1.83.
For `CUCCAG`, “6-mer enrichment (R)” read 0.676.
`CCGUAC` — result for “6-mer enrichment (R)”: 0.624.
`UGAUGA`: “6-mer enrichment (R)” 0.848.
For `CGUAAG`, “6-mer enrichment (R)” read 0.826.
`AUUGGG` — result for “6-mer enrichment (R)”: 1.77.
`AGCAAU`: “6-mer enrichment (R)” 0.662.
Under “6-mer enrichment (R)”, `GACGGU` is recorded as 1.36.
For `UGCGCA`, “6-mer enrichment (R)” read 0.909.

Excerpt of the above (sample 1):
With `AATCTCTG` the E-score was 0.0506.
With `ATTTGGCC` the E-score was -0.0898.
For `AACGCGCT`, the E-score was -0.243.
`CGGGTAAA` has an E-score of -0.00673.
For `CCTTCCAA`, the E-score was -0.0217.
The E-score of `TTCACCAA` is reported as 0.0561.
